Results from different studies.
± marks the error that the study gave.
Cell line: Vero E6

Structure (SMILES)	read-out	method	time	CC50 [µM]
Nc1ccc(O)c(=O)cc1	–	XTT	48 h	186 ± 16.6
CC[C@@H]1C[C@]1(NC(=O)[C@@H]1C[C@@H]2CN1C(=O)[C@H](C(C)(C)C)NC(=O)OCC(C)(C)CCCCc1cccc3c1CN(C3)C(=O)O2)C(=O)NS(=O)(=O)C1CC1	cell viability	MTT	48 (unit not given)	4.3
Nc1nc2nc[nH]c2c(=S)[nH]1	–	XTT	48 h	331 ± 21.3
CN(C)CCn1c(C(=O)N2CCN(c3ccccc3Cl)CC2)c(C(c2ccc(O)cc2)c2ccc(O)cc2)c2ccccc21	–	cell number	40 (unit not given)	> 2.5
CNC(=O)c1ccc(-c2cnc3ncc(Cc4ccc5ncccc5c4)n3n2)cc1F	–	–	3 (unit not given)	38.1
C[C@@H]1CS/C(=N\NC(=O)C(=O)[C@H](NC(=O)C2CCCCCC2)C2CCOCC2)N1C	–	cell number	40 (unit not given)	> 2.5
CCCC[C@H](NC(=O)[C@@H]1[C@@H]2[C@H](CN1C(=O)[C@@H](NC(=O)NC1(CS(=O)(=O)C(C)(C)C)CCCCC1)C(C)(C)C)C2(C)C)C(=O)C(=O)NC1CC1	cell viability	MTT	48 (unit not given)	> 20
C/C=C(/C)C(=O)OC(C)(C)[C@@H]1Cc2c(ccc3ccc(=O)oc23)O1	–	–	3 (unit not given)	88.7
COc1cc2c(cc1N1C[C@@H](C)N[C@@H](C)C1)N(C(=O)c1ccc(-c3ccc(-c4noc(C)n4)cc3C)cc1)CC2	–	cell number	40 (unit not given)	> 2.5
CCC[C@H](NC(=O)[C@@H]1[C@H]2CCC[C@H]2CN1C(=O)[C@@H](NC(=O)[C@@H](NC(=O)c1cnccn1)C1CCCCC1)C(C)(C)C)C(=O)C(=O)NC1CC1	cell viability	MTT	48 (unit not given)	> 50

Excerpt of the above:
Structure (SMILES)	read-out	method	time	CC50 [µM]
CCC[C@H](NC(=O)[C@@H]1[C@H]2CCC[C@H]2CN1C(=O)[C@@H](NC(=O)[C@@H](NC(=O)c1cnccn1)C1CCCCC1)C(C)(C)C)C(=O)C(=O)NC1CC1	cell viability	MTT	48 (unit not given)	> 50
